Published values collected from several papers.
Lines come from different studies, so protocols differ. ± gives the spread as reported.
Organism: Klebsiella pneumoniae

The MIC of `CC(C)C[C@H](NC(=O)CN)C(=O)N[C@@H](Cc1ccccc1)C(=O)N[C@@H](CCCCN)C(=O)N[C@@H](CC(C)C)C(=O)N[C@@H](CC(C)C)C(=O)N[C@@H](CCCCN)C(=O)N[C@@H](CCCCN)C(=O)N[C@@H](CC(C)C)C(=O)N[C@@H](CC(C)C)C(=O)N[C@@H](CCCCN)C(=O)N[C@@H](CC(C)C)C(=O)N[C@@H](CC(C)C)C(=O)N[C@@H](CCCCN)C(N)=O` is reported as > 20 µM (ATCC 700603, CAMHB; 18 h, 37 °C).
`CC[C@H](C)[C@H](NC(=O)[C@H](C)NC(=O)[C@H](C)NC(=O)[C@H](CC(N)=O)NC(=O)[C@H](C)NC(=O)[C@H](C)NC(=O)[C@H](C)NC(=O)[C@H](CCCNC(=N)N)NC(=O)[C@H](CC(C)C)NC(=O)[C@@H](NC(=O)[C@H](CCC(=O)O)NC(=O)[C@@H]1CCCN1C(=O)CNC(=O)[C@H](CCCCN)NC(=O)[C@H](CCC(=O)O)NC(=O)[C@H](CCCCN)NC(=O)[C@@H](NC(=O)[C@H](Cc1ccccc1)NC(=O)[C@H](CC(=O)O)NC(=O)[C@H](CCCCN)NC(=O)[C@H](C)NC(=O)[C@H](CCCCN)NC(=O)[C@H](CC(N)=O)NC(=O)[C@H](CC(C)C)NC(=O)[C@H](Cc1c[nH]c2ccccc12)NC(=O)[C@H](CC(=O)O)NC(=O)[C@H](CCCCN)NC(=O)[C@H](Cc1c[nH]c2ccccc12)NC(=O)CN)[C@@H](C)CC)[C@@H](C)CC)C(=O)N[C@@H](CC(N)=O)C(=O)O` has an MIC of 5.9 to 11.8 µM (broth microdilution; ATCC 13883; 20 h, 37 °C).
The MIC of `CC(C)C[C@H](NC(=O)[C@H](C)NC(=O)CNC(=O)[C@@H](NC(=O)[C@H](CC(C)C)NC(=O)[C@H](CCCCN)NC(=O)[C@H](CCCCN)NC(=O)[C@H](CC(C)C)NC(=O)[C@H](CC(C)C)NC(=O)[C@H](CCCCN)NC(=O)[C@H](CC(C)C)NC(=O)[C@H](CC(C)C)NC(=O)[C@@H](N)CCCCN)C(C)C)C(=O)NCC(N)=O` is reported as 5 µM (ATCC 700603, CAMHB; 18 h, 37 °C).
With `CC[C@H](C)[C@H](NC(=O)[C@H](CCCNC(=N)N)NC(=O)[C@@H](N)CCCNC(=N)N)C(=O)N[C@@H](CCCNC(=N)N)C(=O)N1CCC[C@H]1C(=O)N[C@@H](CCCNC(=N)N)C(=O)N1CCC[C@H]1C(=O)N1CCC[C@H]1C(=O)N[C@@H](CCCNC(=N)N)C(=O)N[C@@H](CC(C)C)C(=O)N1CCC[C@H]1C(=O)N[C@@H](CCCNC(=N)N)C(=O)N1CCC[C@H]1C(=O)N[C@@H](CCCNC(=N)N)C(=O)O` the MIC was 2 µM (broth microdilution; NTUH K2044, Mueller Hinton broth; 24 h, 37 °C).
`CC[C@H](C)[C@H](NC(=O)[C@H](CC(C)C)NC(=O)CNC(=O)[C@@H]1CCCN1C(=O)[C@H](CC(C)C)NC(=O)[C@H](C)NC(=O)[C@H](CCCCN)NC(=O)CNC(=O)[C@H](CC(C)C)NC(=O)[C@H](CCSC)NC(=O)[C@H](CCCCN)NC(=O)[C@H](C)NC(=O)[C@H](C)NC(=O)[C@H](C)NC(=O)CNC(=O)[C@H](Cc1c[nH]c2ccccc12)NC(=O)[C@@H](N)Cc1ccccc1)C(=O)N[C@@H](CO)C(=O)N[C@@H](CCSC)C(=O)N[C@@H](Cc1ccccc1)C(=O)N[C@@H](CCC(N)=O)C(=O)N[C@@H](CCCCN)C(=O)N[C@@H](CC(N)=O)C(=O)O` gave an MIC of > 40 µM (broth microdilution; ATCC 13883; 20 h, 37 °C).
`CC[C@H](C)[C@H](NC(=O)[C@@H]1CCCN1C(=O)[C@H](CCCNC(=N)N)NC(=O)[C@@H]1CCCN1C(=O)CNC(=O)[C@@H]1CCCN1C(=O)[C@H](CCCNC(=N)N)NC(=O)[C@@H]1CCCN1C(=O)[C@H](Cc1ccccc1)NC(=O)[C@@H]1CCCN1C(=O)[C@H](CC(C)C)NC(=O)[C@@H]1CCCN1C(=O)[C@H](CCCNC(=N)N)NC(=O)[C@@H]1CCCN1C(=O)[C@H](CCCNC(=N)N)NC(=O)[C@@H]1CCCN1C(=O)[C@H](CCCNC(=N)N)NC(=O)[C@@H]1CCCN1C(=O)[C@H](CC(C)C)NC(=O)[C@H](CCCNC(=N)N)NC(=O)[C@@H]1CCCN1C(=O)[C@@H]1CCCN1C(=O)[C@H](CCCNC(=N)N)NC(=O)[C@@H]1CCCN1)C(=O)N1CCC[C@H]1C(=O)N[C@@H](CCCNC(=N)N)C(=O)N1CCC[C@H]1C(=O)N[C@@H](CC(C)C)C(=O)N1CCC[C@H]1C(=O)N[C@@H](Cc1ccccc1)C(=O)N1CCC[C@H]1C(=O)O` has an MIC of 4 µM (broth microdilution; NTUH K2044, Mueller Hinton broth; 24 h, 37 °C).
The MIC of `CC(C)C[C@H](NC(=O)[C@H](CC(C)C)NC(=O)[C@H](CCCCN)NC(=O)[C@H](CC(C)C)NC(=O)[C@H](CC(C)C)NC(=O)[C@H](CCCCN)NC(=O)[C@H](CCCCN)NC(=O)[C@H](CC(C)C)NC(=O)[C@H](CC(C)C)NC(=O)[C@H](CCCCN)NC(=O)[C@H](CC(C)C)NC(=O)[C@H](CC(C)C)NC(=O)[C@@H](N)CCCCN)C(=O)N[C@@H](CCCCN)C(N)=O` is reported as > 19 µM (ATCC 700603, CAMHB; 18 h, 37 °C).
`CSCC[C@H](NC(=O)[C@H](CCCCN)NC(=O)[C@H](CCCCN)NC(=O)[C@@H](NC(=O)[C@H](CCCCN)NC(=O)[C@H](CC(=O)O)NC(=O)[C@H](Cc1c[nH]c2ccccc12)NC(=O)[C@H](CC(C)C)NC(=O)[C@H](CCC(=O)O)NC(=O)[C@H](CCCCN)NC(=O)[C@@H](NC(=O)[C@@H](N)Cc1ccccc1)C(C)C)C(C)C)C(=O)NCC(=O)N[C@@H](CO)C(=O)N[C@@H](C)C(=O)N[C@@H](C)C(=O)N[C@@H](Cc1c[nH]c2ccccc12)C(=O)N[C@@H](CO)C(=O)N[C@@H](C)C(=O)N[C@@H](C)C(=O)N[C@@H](CCCCN)C(=O)NCC(=O)N[C@@H](C)C(=O)N[C@@H](Cc1ccccc1)C(=O)N[C@@H](C)C(=O)O` gave an MIC of > 40 µM (broth microdilution; ATCC 13883; 20 h, 37 °C).
For `CC[C@H](C)[C@H](NC(=O)[C@H](CCCNC(=N)N)NC(=O)[C@@H](N)CCCNC(=N)N)C(=O)N[C@@H](CCCNC(=N)N)C(=O)N1CCC[C@H]1C(=O)N[C@@H](CCCNC(=N)N)C(=O)N1CCC[C@H]1C(=O)N1CCC[C@H]1C(=O)N[C@@H](CCCNC(=N)N)C(=O)N[C@@H](CC(C)C)C(=O)N1CCC[C@H]1C(=O)N[C@@H](CCCNC(=N)N)C(=O)N1CCC[C@H]1C(=O)N[C@@H](CCCNC(=N)N)C(=O)N1CCC[C@H]1C(=O)O`, the MIC was 2 µM (broth microdilution; NTUH K2044, Mueller Hinton broth; 24 h, 37 °C).
`CC[C@H](C)[C@H](NC(=O)[C@H](CO)NC(=O)[C@@H](NC(=O)[C@H](C)NC(=O)[C@H](CCC(N)=O)NC(=O)CNC(=O)[C@@H](NC(=O)[C@@H](NC(=O)CNC(=O)[C@@H](NC(=O)[C@H](C)NC(=O)[C@@H]1CCCN1C(=O)CNC(=O)[C@H](C)NC(=O)[C@H](CCCCN)NC(=O)[C@@H](NC(=O)[C@@H](NC(=O)CNC(=O)[C@H](CC(=O)O)NC(=O)[C@H](CCCNC(=N)N)NC(=O)[C@@H](NC(=O)[C@H](CCCCN)NC(=O)[C@H](CCCNC(=N)N)NC(=O)CNC(=O)[C@@H](NC(=O)[C@H](CCCCN)NC(=O)[C@H](CCC(=O)O)NC(=O)[C@@H](NC(=O)[C@H](CCCCN)NC(=O)[C@H](CCCCN)NC(=O)[C@H](CC(C)C)NC(=O)[C@H](Cc1ccccc1)NC(=O)[C@H](CCCCN)NC(=O)[C@H](Cc1c[nH]c2ccccc12)NC(=O)[C@@H](N)CCCNC(=N)N)[C@@H](C)CC)C(C)C)C(C)C)C(C)C)[C@@H](C)CC)C(C)C)C(C)C)C(C)C)[C@@H](C)O)C(=O)N[C@@H](Cc1ccc(O)cc1)C(=O)N[C@@H](CCCCN)C(N)=O` gave an MIC of 4.3 ± 1.4 µg/mL (broth microdilution; ATCC 700603; 20 h, 37 °C).
The MIC of `CC(C)C[C@H](NC(=O)[C@H](C)NC(=O)CNC(=O)[C@@H](NC(=O)[C@@H](NC(=O)[C@H](CCCCN)NC(=O)[C@H](CCCCN)NC(=O)[C@@H](NC(=O)[C@H](CC(C)C)NC(=O)[C@H](CCCCN)NC(=O)[C@H](CC(C)C)NC(=O)[C@H](CC(C)C)NC(=O)[C@@H](N)CCCCN)C(C)C)C(C)C)C(C)C)C(=O)NCC(N)=O` is reported as > 22 µM (ATCC 700603, CAMHB; 18 h, 37 °C).
`CC[C@H](C)[C@H](NC(=O)[C@@H]1CCCN1C(=O)[C@H](CCCNC(=N)N)NC(=O)[C@@H]1CCCN1C(=O)CNC(=O)[C@@H]1CCCN1C(=O)[C@H](CCCNC(=N)N)NC(=O)[C@@H]1CCCN1C(=O)[C@H](Cc1ccccc1)NC(=O)[C@@H]1CCCN1C(=O)[C@H](CC(C)C)NC(=O)[C@@H]1CCCN1C(=O)[C@H](CCCNC(=N)N)NC(=O)[C@@H]1CCCN1C(=O)[C@H](CCCNC(=N)N)NC(=O)[C@@H]1CCCN1C(=O)[C@H](CCCNC(=N)N)NC(=O)[C@@H]1CCCN1C(=O)[C@@H](N)CC(C)C)C(=O)N1CCC[C@H]1C(=O)N[C@@H](CCCNC(=N)N)C(=O)N1CCC[C@H]1C(=O)N[C@@H](CC(C)C)C(=O)N1CCC[C@H]1C(=O)N[C@@H](Cc1ccccc1)C(=O)N1CCC[C@H]1C(=O)O` gave an MIC of > 42 µM (broth microdilution; NTUH K2044, Mueller Hinton broth; 24 h, 37 °C).
`CCCCCCCCCCCCCCCC(=O)Oc1ccc(/C=C/C(=O)CC(=O)/C=C/c2ccc(OC(=O)CCCCCCCCCCCCCCC)c(OC)c2)cc1OC` gave an MIC of 0.591 µM (microbial growth, broth dilution; 24 h).
`CC[C@H](C)[C@H](NC(=O)CN)C(=O)NCC(=O)N[C@@H](C)C(=O)N[C@H](C(=O)N[C@@H](CC(C)C)C(=O)N[C@@H](CCCCN)C(=O)N[C@H](C(=O)N[C@@H](CC(C)C)C(=O)N[C@H](C(=O)N[C@H](C(=O)NCC(=O)N[C@@H](CC(C)C)C(=O)N1CCC[C@H]1C(=O)N[C@@H](C)C(=O)N[C@@H](CC(C)C)C(=O)N[C@H](C(=O)N[C@@H](CO)C(=O)N[C@@H](Cc1c[nH]c2ccccc12)C(=O)N[C@H](C(=O)N[C@@H](CCCCN)C(=O)N[C@@H](CCCNC(=N)N)C(=O)N[C@@H](CCCCN)C(=O)N[C@@H](CCCNC(=N)N)C(=O)N[C@@H](CCC(N)=O)C(=O)N[C@@H](CCC(N)=O)C(N)=O)[C@@H](C)CC)[C@@H](C)CC)[C@@H](C)O)[C@@H](C)O)C(C)C)C(C)C` has an MIC of 26.6 ± 5.5 µg/mL (broth microdilution; ATCC 700603; 20 h, 37 °C).

Some of these lines once more:
The MIC of `CC(C)C[C@H](NC(=O)[C@H](C)NC(=O)CNC(=O)[C@@H](NC(=O)[C@@H](NC(=O)[C@H](CCCCN)NC(=O)[C@H](CCCCN)NC(=O)[C@@H](NC(=O)[C@H](CC(C)C)NC(=O)[C@H](CCCCN)NC(=O)[C@H](CC(C)C)NC(=O)[C@H](CC(C)C)NC(=O)[C@@H](N)CCCCN)C(C)C)C(C)C)C(C)C)C(=O)NCC(N)=O` is reported as > 22 µM (ATCC 700603, CAMHB; 18 h, 37 °C).
